Measurements collected from several papers.
Lines come from different studies, so protocols differ.
Target: Muscarinic acetylcholine receptor M3 (CHRM3, Homo sapiens, UniProt P20309)
Chain of UniProt P20309 (whole entry, looked up): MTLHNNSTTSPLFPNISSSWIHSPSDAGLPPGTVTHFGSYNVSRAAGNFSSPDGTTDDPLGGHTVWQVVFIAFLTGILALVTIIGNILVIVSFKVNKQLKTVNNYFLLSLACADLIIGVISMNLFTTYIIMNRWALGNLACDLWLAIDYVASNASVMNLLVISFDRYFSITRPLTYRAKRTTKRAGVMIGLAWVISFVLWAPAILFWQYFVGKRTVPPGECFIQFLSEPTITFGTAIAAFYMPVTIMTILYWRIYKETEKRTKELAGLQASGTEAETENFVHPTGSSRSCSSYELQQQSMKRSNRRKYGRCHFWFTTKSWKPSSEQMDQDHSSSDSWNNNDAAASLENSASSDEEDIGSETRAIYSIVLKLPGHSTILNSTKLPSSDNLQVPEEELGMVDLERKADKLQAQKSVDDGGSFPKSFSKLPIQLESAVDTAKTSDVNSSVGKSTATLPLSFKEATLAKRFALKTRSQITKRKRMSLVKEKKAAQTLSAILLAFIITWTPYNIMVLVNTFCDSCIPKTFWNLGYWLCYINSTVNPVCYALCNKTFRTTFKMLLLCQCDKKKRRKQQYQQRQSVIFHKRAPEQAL

Cn1cccc1-c1cccnc1 — inhibition (binding; 50 µM): -9.79%
O=C(Nc1cnccc1Cl)N1CCN(Cc2ccc3c(c2)OC(F)(F)O3)CC1 — inhibition (binding; 10 µM, added: [3H]N-methylscopolamine): 7%
Clc1cccc(N2CCNCC2)c1Cl — Emax (ERK1/2 phosphorylation, agonist; CHO cells): < 10%
CN1CCN(c2cc(-c3ccncc3)c(-c3ccc4ccccc4c3)nn2)CC1 — activation (agonist, FLIPR; 12.5 µM): -0.7%
Nc1ncc(-c2nc(N3CCOCC3)nc(N3CCOCC3)n2)c(C(F)F)n1 — radioligand binding (10 µM, added: antagonist radioligand): 116%
CCN(CC)CCCC[C@H](NC(=O)[C@H](CC(C)C)NC(=O)[C@H](C)NC(=O)[C@H](Cc1ccccc1)NC(=O)c1ccc(C(C)(C)C)cc1)C(=O)N[C@@H](CO)C(=O)OC — specific binding (antagonist, radioligand binding; 10 µM; reference: control binding): 93.2%
Cc1ccc(S(=O)(=O)n2c(N)nc3ccccc32)cc1 — inhibition (10 µM): 73.2%
O=C(Nc1cccnn1)N1CCC(=Cc2cccc(Oc3ccc(C(F)(F)F)cn3)c2)CC1 — inhibition (binding; 50 µM, added: [3H]N-methylscopolamine): 28%
c1cc(N2CCNCC2)c2cc[nH]c2c1 — Emax (ERK1/2 phosphorylation, agonist; CHO cells): < 10%

Excerpt of the above:
CN1CCN(c2cc(-c3ccncc3)c(-c3ccc4ccccc4c3)nn2)CC1 — activation (agonist, FLIPR; 12.5 µM): -0.7%
